# Measurements collected from several papers.
# Protocols differ between the studies behind these lines. “And” joins repeats or separate records; there may be more than shown. ± gives the spread as reported.
# Target: Voltage-gated inwardly rectifying potassium channel KCNH2 (KCNH2, Homo sapiens, UniProt Q12809)
# Chain of UniProt Q12809 (whole entry, looked up): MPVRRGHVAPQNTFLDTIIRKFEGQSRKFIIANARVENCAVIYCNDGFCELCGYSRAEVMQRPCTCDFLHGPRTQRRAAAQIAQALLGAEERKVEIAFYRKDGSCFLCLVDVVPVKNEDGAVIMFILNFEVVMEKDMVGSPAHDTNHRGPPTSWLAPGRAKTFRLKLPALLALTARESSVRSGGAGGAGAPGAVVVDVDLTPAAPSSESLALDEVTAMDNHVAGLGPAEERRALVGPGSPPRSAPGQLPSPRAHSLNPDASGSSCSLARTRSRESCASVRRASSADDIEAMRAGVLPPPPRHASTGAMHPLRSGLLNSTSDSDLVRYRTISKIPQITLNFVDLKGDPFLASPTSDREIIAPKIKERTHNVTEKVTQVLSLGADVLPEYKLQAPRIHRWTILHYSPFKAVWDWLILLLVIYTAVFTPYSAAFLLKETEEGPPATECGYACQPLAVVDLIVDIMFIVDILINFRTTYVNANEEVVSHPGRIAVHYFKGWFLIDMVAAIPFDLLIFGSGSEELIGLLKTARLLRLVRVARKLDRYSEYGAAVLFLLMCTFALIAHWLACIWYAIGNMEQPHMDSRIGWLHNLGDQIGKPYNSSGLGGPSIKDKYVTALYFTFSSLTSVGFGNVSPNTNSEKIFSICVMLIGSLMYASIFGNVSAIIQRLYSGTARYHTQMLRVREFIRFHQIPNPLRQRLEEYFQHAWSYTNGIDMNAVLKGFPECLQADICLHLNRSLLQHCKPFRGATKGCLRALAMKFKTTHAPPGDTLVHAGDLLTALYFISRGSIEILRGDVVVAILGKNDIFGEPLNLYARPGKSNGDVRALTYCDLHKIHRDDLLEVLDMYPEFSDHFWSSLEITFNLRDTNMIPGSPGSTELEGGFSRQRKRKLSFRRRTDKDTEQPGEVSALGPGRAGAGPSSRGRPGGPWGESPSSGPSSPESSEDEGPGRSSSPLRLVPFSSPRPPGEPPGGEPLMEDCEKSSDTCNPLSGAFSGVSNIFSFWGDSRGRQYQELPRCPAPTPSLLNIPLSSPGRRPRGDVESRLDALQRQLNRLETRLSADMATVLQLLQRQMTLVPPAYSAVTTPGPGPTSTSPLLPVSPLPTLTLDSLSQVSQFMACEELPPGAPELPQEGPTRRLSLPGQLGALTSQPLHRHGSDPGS
SMILES,assay,system,conditions,how to read,measurement,value
c1cncc(OC[C@@H]2CN(CCN3CCc4ccccc43)CCO2)c1,"potassium current inhibition, inhibitor, PatchXpress electrophysiology",,,,Emax,68 ± 9.8%
CC1(C)CN(C(=O)Cn2c(=O)c(C(=O)NCc3ccc(Cl)cc3)cc3nccnc32)C1,,,,reference: hERG IC50 over antiviral EC50,therapeutic index,2.3
Cc1oc2ccccc2c1Cc1cc(I)c(OCC(=O)O)c(I)c1,"potassium current, activator, patch clamp",SH-SY5Y endogenous hERG,"10 µM, at 0 mV",reference: control,activation rate acceleration,2.7 fold
COc1cc2c(cc1OC)C(=O)N(CCCCN1CCN(c3ccccc3OC)CC1)C2,"potassium current inhibition, inhibitor, PatchXpress electrophysiology",,,,Hill slope,1
CC(C)c1noc2ncc(C(=O)c3ccccc3O)cc12,"ion current, whole-cell patch-clamp",HEK-293T,10 µM,,inhibition,8.54%
CC1(F)CN(C(=O)Cn2c(=O)c(C(=O)NCc3ccc(Cl)cc3)cc3nc(N4CCNC4=O)cnc32)C1,"ion current, inhibitor",,,,Hill slope,0.51
Clc1cncc(OC[C@@H]2CN(CCN3CCc4ccccc43)CCO2)c1,"potassium current inhibition, inhibitor, PatchXpress electrophysiology",,,,Hill slope,1
CN1C[C@H](COc2nccc3c(NCc4ccco4)cc(Cl)nc23)OC1=O,"potassium current, inhibitor, automated patch clamp",HEK293,concentration not given,,inhibition,no effect
CN1CCN(c2cnc3c(cc(C(=O)NCc4ccc(Cl)cc4)c(=O)n3CC(=O)N3CC(C)(F)C3)n2)C1=O,"ion current, inhibitor",,,,Hill slope,0.55
Cc1cc(/C=C/C#N)cc(C)c1Nc1ccnc(Nc2ccc(C#N)cc2)n1,"hERG current, manual patch clamp",CHO stably expressing hERG,0.3 µM,,inhibition,19.8%
CC1(F)CN(C(=O)Cn2c(=O)c(C(=O)NCc3ccc(Cl)cc3)cc3nc(N4CCN(CC(=O)O)C4=O)cnc32)C1,,human cells,retest,,Hill slope,0.79
CCC1=C(CC)/C(=C/NC2CCCCC2)N=C1c1ccc(C)[nH]1,whole-cell patch clamp,CHO expressing hERG,,,Hill coefficient,1.65
c1ccc(OC[C@@H]2CN(CCN3CCc4ccccc43)CCO2)cc1,"potassium current inhibition, inhibitor, PatchXpress electrophysiology",,,,Hill slope,0.51 ± 0.15
Cc1ccc2c(c1)C(=O)[C@]1(O)CCN(c3ccc4nc(C)ccc4c3)C1=N2,safety pharmacology screen,,human,,Emax,65%
CC1(F)CN(C(=O)Cn2c(=O)c(C(=O)NCc3ccc(Cl)cc3)cc3nccnc32)C1,"ion current, inhibitor",,,,Hill slope,0.86
O=C1c2ccccc2CCCN1CCCCN1CCN(c2ccccn2)CC1,"potassium current inhibition, inhibitor, PatchXpress electrophysiology",,,,Emax,95.2 ± 5.2%
Cc1ccc(C(=O)Nc2ccc3ccccc3c2)o1,"ion current, inhibitor, whole-cell patch clamp",HEK293T transfected,"10 µM, pH 7.4",,inhibition,15.1% and 11.6% and 12.7% and 20.9% and 8.2%
COc1cc(N)c(Cl)cc1C(=O)NC1CCN(CCCOc2ccc(F)cc2)CC1OC (centres unmarked),"ion current, inhibitor, whole-cell patch clamp",CHO expressing hERG,0.3 µM,,inhibition,98.9 ± 0.85%
Clc1cccc(OC[C@@H]2CN(CCN3CCc4ccccc43)CCO2)c1,"potassium current inhibition, inhibitor, PatchXpress electrophysiology",,,,Hill slope,0.49 ± 0.3
COc1cnc2c(cc(C(=O)NCc3ccc(Cl)cc3)c(=O)n2CC(=O)N2CC(C)(F)C2)n1,"ion current, inhibitor",,,,Hill slope,1.37
CC(C)(C)NCc1ccc(Nc2ccnc3cc(Cl)ccc23)cc1O,"thallium flux, blocker",,"100 µM, 30 min",reference: control,inhibition,> 50%
O=C(NO)c1ccc(CN2CCCCc3ccccc32)c(F)c1,radioligand binding,,10 µM,,inhibition of radioligand binding,16%
CCOc1cc(-c2nncn2C)ccc1Nc1ncc2cc(C)nc(NCC(C)(C)C)c2n1,,,10 µM,,inhibition,40.4%
